# Measurements pooled from the literature.
# Parts stem from different laboratories: compare values within a part only.

# Block 1 — technique: protein binding microarray; form: double-stranded DNA, one strand shown; medium: in vitro; tested at: not given; baseline: not given; direction: higher = stronger binding
# Target: Histone acetyltransferase KAT6A, winged helix 2, GST fusion (KAT6A, Homo sapiens, UniProt Q92794, residues 85-181)
# Notes: 8-mer, flanks averaged, mean of 2 arrays, mostly near background
# Residues (chain): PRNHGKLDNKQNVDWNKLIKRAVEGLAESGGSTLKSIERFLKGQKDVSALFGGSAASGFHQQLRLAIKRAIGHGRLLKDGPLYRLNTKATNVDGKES
Strand,E-score
ACAGTCGC,-0.177
ATGTAACA,0.0176
GGTATGTA,-0.287
TCGAACCA,-0.0633
ACGACCCG,0.114
GGACGGCC,0.147
GCTAGGCC,0.1
AAAGGCCG,0.0591
AAAATGGA,0.075
GTATGTTA,-0.0787
AGTCCGGC,0.0974
CTTTGGCC,-0.0815
AGATCCAT,-0.102
ATCATCAG,0.0327
TCAGTGAA,0.0188
CCGGTTCC,0.0517
ACGACCTA,-0.0225
AGACTGTA,-0.141
AGTGCGTG,0.0323
TCCAGGCA,0.0368
CAGTACAG,-0.0645
CCGTGTTC,0.0689
AACTATTC,-0.138
ACGTTAGT,-0.131

# Block 2 — technique: RNA Bind-n-Seq; form: RNA; medium: in vitro; tested at: 200 nM; notes: whole 134-nt RNA, ends assumed; with: 150 mM LiCl; baseline: input library; direction: higher = stronger binding; each molecule: 7-deaza-guanosine replaces G
# Target: Ras GTPase-activating protein-binding protein 1, full length (G3BP1, Homo sapiens, UniProt Q13283)
# Sequence of UniProt Q13283 (whole entry, looked up): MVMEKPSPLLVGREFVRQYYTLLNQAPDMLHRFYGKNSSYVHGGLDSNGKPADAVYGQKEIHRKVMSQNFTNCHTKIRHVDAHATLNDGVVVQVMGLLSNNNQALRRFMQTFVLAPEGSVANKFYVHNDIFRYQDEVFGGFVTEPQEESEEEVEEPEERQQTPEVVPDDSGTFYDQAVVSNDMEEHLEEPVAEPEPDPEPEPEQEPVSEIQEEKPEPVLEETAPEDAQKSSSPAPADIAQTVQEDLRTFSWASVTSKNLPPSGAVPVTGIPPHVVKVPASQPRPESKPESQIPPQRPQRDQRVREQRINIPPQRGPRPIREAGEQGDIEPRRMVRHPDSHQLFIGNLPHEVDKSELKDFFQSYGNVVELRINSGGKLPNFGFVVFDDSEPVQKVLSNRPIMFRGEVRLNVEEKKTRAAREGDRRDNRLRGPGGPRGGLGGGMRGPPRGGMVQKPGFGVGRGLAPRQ
Strand,log2 enrichment
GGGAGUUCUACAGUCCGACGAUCUCCCUGAGACGGCGGGCAACAGCAUCGGCAGGAACGCCAUGGCCGUCCCCUCCCAGCUCUUACCUUACCAUCGACCUCACAGACGACACAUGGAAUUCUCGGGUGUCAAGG,1.21
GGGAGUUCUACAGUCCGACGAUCUGGCCCUGGUGGCAUGCGGGGAGGAAGAGGUGGACUCAUGGAUCGUGGUGGUCCCGGUGGAAUGUUCAGAGGUGGCCGUGGUGGAGACAGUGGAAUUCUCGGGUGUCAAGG,0.53
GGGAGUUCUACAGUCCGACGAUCUCAAGUCCUGUGCUACACAUCGUAUGUACCGAAUCGGAAAGGUGGAAAAAAAGGAAAGUAUUAUGUUACGCCGUUCGGAUCUGCACUUCCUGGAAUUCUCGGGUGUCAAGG,-0.123
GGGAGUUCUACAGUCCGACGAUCCUCAAGUCCUGUGCUACACAUCGUAUGUACCGAAUCGGGAAGGGAAGGGAAGGAAAGUAUUAUGUUACGCCGUUCGGAUCUGCACUUCCAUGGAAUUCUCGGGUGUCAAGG,-0.203
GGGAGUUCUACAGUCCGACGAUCUCAAGUCCUGUGCUACACAUCGUAUGUACCGAAUCGGGAAAGGAAAGGGAAAGGGAAAGUAUUAUGUUACGCCGUUCGGAUCUGCACUUCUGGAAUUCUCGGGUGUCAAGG,-0.344
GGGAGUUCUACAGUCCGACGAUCUAACUUUACAGGAGGAUCUGAUGGAUAUGGCAGUGGACGUGGAUUUGGGGAUGGCUAUAAUGGGUAUGGAGGAGGACCUGGAGGUGGCAAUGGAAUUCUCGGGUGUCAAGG,-0.0125
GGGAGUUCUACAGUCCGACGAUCCUGUGCUACACAUCGUAUGUACCGAAUCGGGGUUUUUUUGGGUUUUUUUGGGUUUUUUUGGAAAGUAUUAUGUUACGCCGUUCGGAUCUGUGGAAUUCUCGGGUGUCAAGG,1.36
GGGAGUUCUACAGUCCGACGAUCCACAGACAACACGCACCCACACAGACACAGAGGGAACGGGUUGGGAUGGGGACAGGGUGCACAGCAGGGCGGGGUAGGACCCCAGCCCCUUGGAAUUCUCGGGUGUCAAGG,-1.8

# Block 3 — technique: RNA Bind-n-Seq; form: RNA; medium: in vitro; tested at: 365 nM; baseline: no-protein control; direction: higher = stronger binding
# Target: RNA binding protein fox-1 homolog 2, RRM domain, GST-SBP tag (RBFOX2, Homo sapiens, UniProt O43251-10, residues 100-194)
# Notes: natural RNA segment, single round, ends assumed
# Construct (chain): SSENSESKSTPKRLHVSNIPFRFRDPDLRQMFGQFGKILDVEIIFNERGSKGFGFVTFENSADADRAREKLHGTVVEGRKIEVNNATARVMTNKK
Strand,RBNS enrichment (R)
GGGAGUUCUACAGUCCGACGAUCUUCGAAAGCUAAUAUCCCAGAAGAGCGACAGACAGAGGAGGUGACUACAUGUAAGACAUAUGUUACUGUGUGGAGGACAUAAAACUUUUCAGUUCUGGGGUGGCCAUUGCUGGAAUUCUCGGGUGCCAA,0.385
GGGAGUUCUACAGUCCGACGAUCCUUAACUGGAAAGUGACCGUCCACUGCCCCAUGGAGCCCAUCUGGACACAGCACAGCCCCAAAACCGUUAGCAGCUGGCUCUGUUUCCAAGCCUGGGGAGGGGUUCCUCAUGGAAUUCUCGGGUGCCAA,0.56
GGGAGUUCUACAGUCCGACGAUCUGUGCAAUACGAAUUAUGCAAUCACAAUACAUUUGUAGCUCCCGAGUGUCCUAAAGGGAGUGCACUUCUUUGAAGCUGGUGUGUUAAUACUAUGUAAUAAAUGGUUAACUUGGAAUUCUCGGGUGCCAA,0.545
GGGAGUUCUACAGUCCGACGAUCGUUGCCACUUGGGGUGCACAGAUAAGGGUAGGUCACCAACUGAUUAUGCCUGUCUCUGAGCCAUGCAAGAGGCUCCUAAUGUGCUGGGGGGGGGAGCACAUAUGCAUAUAUGGAAUUCUCGGGUGCCAA,0.89
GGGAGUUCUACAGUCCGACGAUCGAUGAAACUGGUCAGAAUCUGUAAAUUACUUAGUUUAUAUCCACUUUGAGCAGGUAUCAAAUGAUUUAGGAUCCUUAAAAUUACAUUCUAAUAAUUAAGUUAUGUGGAAAUGGAAUUCUCGGGUGCCAA,0.295
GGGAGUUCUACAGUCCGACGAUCUUGUCCCAGUUGUCCAAAACAGCUGGAACUUGUCUUCACCGCCCAGGGCACCGCCUCCCCGUGUCCUGUGUUUGGUCAGACACCUGCCCUUCACCCUCUGUGUCCAGAGGUGGAAUUCUCGGGUGCCAA,0.21
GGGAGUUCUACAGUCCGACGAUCCUUCUGCCCAACACUGGGUGCCCCUUCCCAGUUUCCCAGCAGGGGCUUCAUGGGCCACCGUCAGUGGGUCUGGGCCUGCCAGAGUCGUCUUGCUCUUCCUCUUGCUUCUAUGGAAUUCUCGGGUGCCAA,0.343
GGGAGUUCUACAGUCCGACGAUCACAUUUAGUGGUUUCCAAAAUAUAUUAGUAUAUUGUUGAACAUACAUUAUGCCUUAGAAAUGCACAUUCUGUAUUUUGUGGGAUGAUAAUCUAAUUCAGUAUAGAAUAUGUGGAAUUCUCGGGUGCCAA,0.239

# Block 4 — technique: RNA Bind-n-Seq; form: RNA; medium: in vitro; tested at: not given; baseline: input RNA pool; direction: higher = stronger binding
# Target: RING finger protein unkempt homolog, zinc fingers 1-6, GST-SBP tag (UNK, Homo sapiens, UniProt Q9C0B0, residues 30-357)
# Notes: RNA with constant flanks, human and mouse sites, ends assumed
# Construct (chain): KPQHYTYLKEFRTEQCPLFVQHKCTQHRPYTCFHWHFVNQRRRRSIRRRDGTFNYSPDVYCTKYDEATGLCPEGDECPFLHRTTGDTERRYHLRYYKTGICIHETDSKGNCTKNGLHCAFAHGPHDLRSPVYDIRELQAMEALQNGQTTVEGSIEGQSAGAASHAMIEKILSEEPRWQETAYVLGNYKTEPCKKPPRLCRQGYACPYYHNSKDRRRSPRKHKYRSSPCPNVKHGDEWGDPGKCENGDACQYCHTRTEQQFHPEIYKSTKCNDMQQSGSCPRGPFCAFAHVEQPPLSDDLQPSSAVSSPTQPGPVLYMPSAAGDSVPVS
Strand,bound/input enrichment [ratio]
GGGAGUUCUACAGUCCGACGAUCGUUAUUUGAUUUAUUUAAAGGCUAAAAUUUGUUUUUUUAUUCUUUGCACAAUUGUUUCAUUGUUUGACACUUAAUGCACUCGUCAUUUGCAUACGACAGUAGCAUUCUGACCACACUUGUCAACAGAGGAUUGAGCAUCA,1.08
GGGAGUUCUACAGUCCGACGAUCUUUCAUUUAAGGACUUGUGCUGCUAAGUUGAGGCCAUUGACGGCUUCCCAGACUGUUAAGACAUUUUCACAAAACAGACCAGCAGCAGCUAGGACAUUUCAACAGAUUCGGUGCUAUUCUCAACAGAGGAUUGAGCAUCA,0.576
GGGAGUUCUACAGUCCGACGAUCACUGAAUUAAAUCAUCAUGCAUAUUUAUUUCUCCAAAGCACCUUUGACAAGCAUGAUUUGGAUAGAGACUGUGCUUUGUCACCUGAUGAGCUUAAAGAUUUAUUUAAAGUUUUCCCUUACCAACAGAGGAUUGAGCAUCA,0.196
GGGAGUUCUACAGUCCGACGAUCAGUAUUAAGUCACAUCAUACUUUAAUUUAGUGAAUAUGCUUUGCUGUUUAUUACUAAAACUGACUCAUUGUUCUUUGAUUAUGCUCAUUAUUCUAGAAACCAAUAACUUAAGAUUACUUUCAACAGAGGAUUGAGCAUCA,2.36
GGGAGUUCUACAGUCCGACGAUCACCAAUGAAAAUCAGAAGACUAAUACUGUGGCUAAACAGGAGCAGCGACCUAUAAAAAAGAAUAGUCUCUAUUCAACAGAUUUUAUAGUGUUUAAUGACAAUGAUGGUUCAGAUGAUGAGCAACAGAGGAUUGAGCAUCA,0.414
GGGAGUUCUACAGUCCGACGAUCAGUGAGGAAGUGGCUACCAAGGAGGAGCUGGUGGCAGAUGCCAAGGUGGAAAAGCCAGAAAAAGCCAAGUCUCCUGUGCCAAAAUCACCAGUGGAAGAGAAAGGCAAGUCUCCUGUGCCCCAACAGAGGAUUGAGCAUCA,0.0709
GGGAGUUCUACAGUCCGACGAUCAGUAUUAAAAAGAUCAUACAUGUGCUGGAGAAGGUGCAGUUUCUUGAGCAAGAAGUAGAAGAGUUUGUAGGAAAAAAGACAGACAAAGCGUAUUGGCUUCUGGAAGAAAUGCUGACAAAGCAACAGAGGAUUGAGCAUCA,0.381
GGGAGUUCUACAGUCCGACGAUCUCAUACAGUGUCAGAACAAAGGCUGGGAUGGGUAUGAUGUACAGUGGGAAUGUAAGACGGACUUAGAUAUUGCAUACAAAUUUGGAAAAACUGUGGUGAGCUGUGAAGGCUAUGAGUCCUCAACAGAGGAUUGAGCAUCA,2.95

# For quick reference, copied from above (block 1):
Strand,E-score
CCGGTTCC,0.0517
ACGACCTA,-0.0225
AGACTGTA,-0.141
AGTGCGTG,0.0323
TCCAGGCA,0.0368
CAGTACAG,-0.0645
